Measured values collected from several papers.
Numbers after ± are the reported error.

O=S(=O)(O)Oc1cc([C@H]2Oc3cc(O)cc(O)c3C[C@H]2O)ccc1O
plasma concentration (human plasma; mean): 819 nM

CC(C(=O)NCC(=O)NCC(CNC(=O)CNC(=O)C(C)N1CCN(CC(=O)[O-])CCN(CC(=O)[O-])CCN(CC(=O)[O-])CC1)(CNC(=O)CNC(=O)C(C)N1CCN(CC(=O)[O-])CCN(CC(=O)[O-])CCN(CC(=O)[O-])CC1)CNC(=O)CNC(=O)C(C)N1CCN(CC(=O)[O-])CCN(CC(=O)[O-])CCN(CC(=O)[O-])CC1)N1CCN(CC(=O)[O-])CCN(CC(=O)[O-])CCN(CC(=O)[O-])CC1.[Gd+3].[Gd+3].[Gd+3].[Gd+3] (stereo not shown)
plasma Gd concentration (ICP-MS; female cynomolgus monkey, plasma; IV bolus, dose not given, 24 h, with: co-injected lanthanide agents): < 0.1 µmol Gd/L

[H]/N=C(/N)N[C@H]1[C@H](O)[C@@H](O)[C@H](O[C@@H]2O[C@@H](C)[C@](O)(C=O)[C@H]2O[C@@H]2O[C@@H](CO)[C@H](O)[C@@H](O)[C@@H]2NC)[C@@H](N/C(N)=N\[H])[C@@H]1O
amount permeated (starch gel membrane permeability; Gram-negative envelope surrogate; 200 µM, 10 min, pH 7.4): 0.28 nmol

Cc1onc(-c2ccccc2)c1-c1ccc(S(N)(=O)=O)cc1
apoptotic cells (COS-7; 50 µM, 24 h, 0.1% DMSO, unit not given; baseline: vehicle control): 0.69 ± 0.08

COc1ccc2c(=O)n(C)c(-c3ccccc3)nc2c1
tissue/plasma ratio (Sprague-Dawley rat, male, large intestine; oral, 30 mg/kg, 0.25 h; baseline: large intestine over plasma): 13.9

CCn1ccc2c([C@@](O)(CC)c3ccc(C(F)(F)F)nc3)n(C)nc2c1=O
CL (rat Sprague-Dawley male, plasma; intravenous, 1 mg/kg): 15.3 ± 1.92 mL/min/kg

Cc1nc2cccc(OCC(C)(C)C(=O)NC(C)C)c2c(N)c1C(=O)O
AUC(0-last) ratio (Sprague-Dawley rat, plasma; oral, 30 mg/kg, day 1; baseline: female over male): 1.05 ± 0.26

CCN1/C(=C/C(C)=O)Sc2ccc(F)cc21
QRS duration (cynomolgus monkey; oral, 30 mg/kg, 4 h post-dose): 36 ± 1 ms

FC(F)(F)c1ccc(CNc2ccc(Cc3c[nH]c4ncc(Cl)cc34)cn2)cn1
adverse event incidence (item: Rash; patients with advanced solid tumours; oral, dose not given, grade 1 and 2, possibly related to drug): 15%

COc1ccc2nc([S+]([O-])Cc3ncc(CO)c(OC)c3C)[nH]c2c1 (stereo not shown)
R/S enantiomer ratio fold change (human, dried plasma spots; 2 h, with: fluvoxamine and voriconazole; baseline: inhibited over baseline): 0.34

CC(C)(C(=O)N1CCOc2c(C#N)cncc2C1)C(F)F
subjects with contact dermatitis TEAE (human, both sexes; oral, 10 mg single dose): 16.7%

CN1C(C(=O)Nc2ccccn2)=C(O)c2sc(Cl)cc2S1(=O)=O
confluence (COS-7; 30 µM, 24 h, 0.1% DMSO, unit not given; baseline: vehicle control): 0.97 ± 0.02

COc1c(O[C@@H]2O[C@H](CO)[C@@H](O)[C@H](O)[C@H]2O)cc2c(c1O)C(=O)c1c(cc(C)c(O)c1OC)C2=O
cell viability (HepaRG co-cultured with HK-2; MTT; 33.33 µM, 24 h; baseline: untreated control): 99.2 ± 9.48%

O=C(O)CC(O)(CC(=O)O)C(=O)O
ALT level (ELISA; Wistar rat; 175 and 1000 mg/kg, two and four weeks): increased

O=C(O)c1ccccc1O
plasma concentration (human plasma; median, both sexes): 2300 nM

Cc1ccc([C@@H]2O[C@H](CO)[C@@H](O)[C@H](O)[C@H]2O)cc1Cc1ccc(-c2ccc(F)cc2)s1
urinary phosphate excretion change (item: inorganic phosphorus; Japanese type 2 diabetes patients; 400 mg, day 17, 24 h urine collection; baseline: baseline): 92.1 mg

Cc1cc(Nc2cc3ncccc3c(N[C@@H]3C[C@H]4CC[C@@H](C3)N4CCC#N)n2)n[nH]1
sneezing incidence (healthy human subjects; oral, 10 mg, 14 days, multiple ascending dose): 0%

COc1ccc([C@@H](O)c2cc(-c3ncnc4cc(N5CCOCC5)ccc34)c(F)cc2Cl)nn1
drug-related blood lymphatic AE (locally advanced rectal cancer patients; 150 mg, with: capecitabine and radiotherapy): 33%

CC[C@H]1OC(=O)[C@H](C)[C@@H](O[C@H]2C[C@@](C)(OC)[C@@H](O)[C@H](C)O2)[C@H](C)[C@@H](O[C@@H]2O[C@H](C)C[C@H](N(C)C)[C@H]2O)[C@](C)(O)C[C@@H](C)C(=O)[C@H](C)[C@@H](O)[C@]1(C)O
amount permeated (starch gel membrane permeability; Gram-negative envelope surrogate; 200 µM, 60 min, pH 7.4): 0.97 nmol

Cn1c(=O)c2[nH]cnc2n(C)c1=O
samples above LOQ (human, both sexes, cerebrospinal fluid): 43.3%

CC(C)c1nc(N(C)S(C)(=O)=O)nc(-c2ccc(F)cc2)c1/C=C/[C@@H](O)C[C@@H](O)CC(=O)O
peripheral volume of distribution (population pharmacokinetic model; people living with HIV; oral, dose not given): 1660 L

NC1(C(=O)N[C@@H](CCO)c2ccc(Cl)cc2)CCN(c2nc[nH]c3nccc2-3)CC1
incidence of Dyspepsia (metastatic CRPC patients; dose not given, any grade, treatment-related, all doses, with: enzalutamide 160 mg daily): 13.3%

Some of these lines once more:
O=S(=O)(O)Oc1cc([C@H]2Oc3cc(O)cc(O)c3C[C@H]2O)ccc1O
plasma concentration (human plasma; mean): 819 nM

CC(C)c1nc(N(C)S(C)(=O)=O)nc(-c2ccc(F)cc2)c1/C=C/[C@@H](O)C[C@@H](O)CC(=O)O
peripheral volume of distribution (population pharmacokinetic model; people living with HIV; oral, dose not given): 1660 L

CC[C@H]1OC(=O)[C@H](C)[C@@H](O[C@H]2C[C@@](C)(OC)[C@@H](O)[C@H](C)O2)[C@H](C)[C@@H](O[C@@H]2O[C@H](C)C[C@H](N(C)C)[C@H]2O)[C@](C)(O)C[C@@H](C)C(=O)[C@H](C)[C@@H](O)[C@]1(C)O
amount permeated (starch gel membrane permeability; Gram-negative envelope surrogate; 200 µM, 60 min, pH 7.4): 0.97 nmol

CCn1ccc2c([C@@](O)(CC)c3ccc(C(F)(F)F)nc3)n(C)nc2c1=O
CL (rat Sprague-Dawley male, plasma; intravenous, 1 mg/kg): 15.3 ± 1.92 mL/min/kg
